{"sequences": {"note": "Protein sequences, listed by entry. Tags and fused reporters are not part of them. Residues count along the entry.", "UniProt Q12809, whole entry": "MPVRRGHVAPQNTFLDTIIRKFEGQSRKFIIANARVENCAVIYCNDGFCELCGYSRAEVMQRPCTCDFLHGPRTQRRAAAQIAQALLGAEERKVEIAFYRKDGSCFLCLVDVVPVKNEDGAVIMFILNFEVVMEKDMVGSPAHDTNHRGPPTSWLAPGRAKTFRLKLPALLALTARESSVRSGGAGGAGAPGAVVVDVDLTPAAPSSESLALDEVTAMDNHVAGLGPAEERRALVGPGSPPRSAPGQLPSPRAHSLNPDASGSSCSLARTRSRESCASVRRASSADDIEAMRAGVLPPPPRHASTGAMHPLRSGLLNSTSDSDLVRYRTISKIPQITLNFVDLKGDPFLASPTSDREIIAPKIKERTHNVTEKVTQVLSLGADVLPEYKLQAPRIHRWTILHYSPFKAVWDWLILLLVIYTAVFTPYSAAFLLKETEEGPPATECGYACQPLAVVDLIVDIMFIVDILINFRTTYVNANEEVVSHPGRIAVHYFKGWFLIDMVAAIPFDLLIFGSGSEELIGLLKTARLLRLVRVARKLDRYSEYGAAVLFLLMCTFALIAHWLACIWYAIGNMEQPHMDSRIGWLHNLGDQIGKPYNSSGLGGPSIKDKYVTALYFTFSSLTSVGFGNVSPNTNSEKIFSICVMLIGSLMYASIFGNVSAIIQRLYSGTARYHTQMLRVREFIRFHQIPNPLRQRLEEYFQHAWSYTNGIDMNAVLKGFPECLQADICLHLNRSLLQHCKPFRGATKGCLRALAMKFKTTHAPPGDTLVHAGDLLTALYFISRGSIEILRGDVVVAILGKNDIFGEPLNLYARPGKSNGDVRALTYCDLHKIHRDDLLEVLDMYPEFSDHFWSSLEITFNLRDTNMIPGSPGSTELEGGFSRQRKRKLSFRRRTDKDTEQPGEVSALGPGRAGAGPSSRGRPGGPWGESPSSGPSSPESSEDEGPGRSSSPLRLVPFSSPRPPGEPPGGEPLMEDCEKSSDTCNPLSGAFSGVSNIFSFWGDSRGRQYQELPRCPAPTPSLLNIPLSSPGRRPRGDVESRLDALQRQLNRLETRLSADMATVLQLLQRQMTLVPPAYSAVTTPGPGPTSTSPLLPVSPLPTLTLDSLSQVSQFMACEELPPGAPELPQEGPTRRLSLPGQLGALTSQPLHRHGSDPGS", "UniProt P04150, whole entry": "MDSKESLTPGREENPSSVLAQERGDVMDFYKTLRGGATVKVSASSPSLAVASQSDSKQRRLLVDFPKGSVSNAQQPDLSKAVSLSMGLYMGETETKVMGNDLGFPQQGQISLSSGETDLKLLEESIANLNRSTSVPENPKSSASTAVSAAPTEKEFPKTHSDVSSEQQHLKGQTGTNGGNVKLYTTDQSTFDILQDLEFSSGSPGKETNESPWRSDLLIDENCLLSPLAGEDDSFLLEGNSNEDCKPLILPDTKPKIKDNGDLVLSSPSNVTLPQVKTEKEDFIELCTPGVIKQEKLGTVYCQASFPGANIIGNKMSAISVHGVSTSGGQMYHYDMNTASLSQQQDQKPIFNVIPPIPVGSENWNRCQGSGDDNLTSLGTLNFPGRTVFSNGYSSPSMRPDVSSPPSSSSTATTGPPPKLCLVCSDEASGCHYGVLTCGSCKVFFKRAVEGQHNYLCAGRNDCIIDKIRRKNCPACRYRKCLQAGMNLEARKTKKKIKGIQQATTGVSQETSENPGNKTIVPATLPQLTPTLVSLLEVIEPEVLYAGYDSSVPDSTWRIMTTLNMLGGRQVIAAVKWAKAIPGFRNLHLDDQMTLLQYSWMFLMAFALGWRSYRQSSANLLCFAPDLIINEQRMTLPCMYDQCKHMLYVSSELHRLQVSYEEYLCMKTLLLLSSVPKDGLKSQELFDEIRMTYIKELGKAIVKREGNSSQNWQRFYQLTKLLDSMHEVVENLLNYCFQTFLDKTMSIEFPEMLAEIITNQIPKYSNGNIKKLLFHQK", "UniProt P04798, whole entry": "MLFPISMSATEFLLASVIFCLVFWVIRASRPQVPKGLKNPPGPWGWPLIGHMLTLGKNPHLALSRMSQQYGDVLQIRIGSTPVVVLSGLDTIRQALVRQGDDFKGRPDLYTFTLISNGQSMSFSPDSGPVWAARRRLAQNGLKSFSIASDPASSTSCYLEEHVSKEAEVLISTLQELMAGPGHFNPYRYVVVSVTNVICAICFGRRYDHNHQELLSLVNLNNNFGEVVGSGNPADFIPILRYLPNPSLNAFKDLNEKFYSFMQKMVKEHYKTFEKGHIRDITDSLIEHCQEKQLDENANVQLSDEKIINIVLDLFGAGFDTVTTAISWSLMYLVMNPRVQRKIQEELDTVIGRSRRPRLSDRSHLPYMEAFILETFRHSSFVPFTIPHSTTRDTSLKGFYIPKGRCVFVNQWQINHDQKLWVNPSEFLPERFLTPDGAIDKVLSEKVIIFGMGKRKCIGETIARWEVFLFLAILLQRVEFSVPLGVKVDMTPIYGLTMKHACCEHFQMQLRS", "UniProt P28827, whole entry, looked up": "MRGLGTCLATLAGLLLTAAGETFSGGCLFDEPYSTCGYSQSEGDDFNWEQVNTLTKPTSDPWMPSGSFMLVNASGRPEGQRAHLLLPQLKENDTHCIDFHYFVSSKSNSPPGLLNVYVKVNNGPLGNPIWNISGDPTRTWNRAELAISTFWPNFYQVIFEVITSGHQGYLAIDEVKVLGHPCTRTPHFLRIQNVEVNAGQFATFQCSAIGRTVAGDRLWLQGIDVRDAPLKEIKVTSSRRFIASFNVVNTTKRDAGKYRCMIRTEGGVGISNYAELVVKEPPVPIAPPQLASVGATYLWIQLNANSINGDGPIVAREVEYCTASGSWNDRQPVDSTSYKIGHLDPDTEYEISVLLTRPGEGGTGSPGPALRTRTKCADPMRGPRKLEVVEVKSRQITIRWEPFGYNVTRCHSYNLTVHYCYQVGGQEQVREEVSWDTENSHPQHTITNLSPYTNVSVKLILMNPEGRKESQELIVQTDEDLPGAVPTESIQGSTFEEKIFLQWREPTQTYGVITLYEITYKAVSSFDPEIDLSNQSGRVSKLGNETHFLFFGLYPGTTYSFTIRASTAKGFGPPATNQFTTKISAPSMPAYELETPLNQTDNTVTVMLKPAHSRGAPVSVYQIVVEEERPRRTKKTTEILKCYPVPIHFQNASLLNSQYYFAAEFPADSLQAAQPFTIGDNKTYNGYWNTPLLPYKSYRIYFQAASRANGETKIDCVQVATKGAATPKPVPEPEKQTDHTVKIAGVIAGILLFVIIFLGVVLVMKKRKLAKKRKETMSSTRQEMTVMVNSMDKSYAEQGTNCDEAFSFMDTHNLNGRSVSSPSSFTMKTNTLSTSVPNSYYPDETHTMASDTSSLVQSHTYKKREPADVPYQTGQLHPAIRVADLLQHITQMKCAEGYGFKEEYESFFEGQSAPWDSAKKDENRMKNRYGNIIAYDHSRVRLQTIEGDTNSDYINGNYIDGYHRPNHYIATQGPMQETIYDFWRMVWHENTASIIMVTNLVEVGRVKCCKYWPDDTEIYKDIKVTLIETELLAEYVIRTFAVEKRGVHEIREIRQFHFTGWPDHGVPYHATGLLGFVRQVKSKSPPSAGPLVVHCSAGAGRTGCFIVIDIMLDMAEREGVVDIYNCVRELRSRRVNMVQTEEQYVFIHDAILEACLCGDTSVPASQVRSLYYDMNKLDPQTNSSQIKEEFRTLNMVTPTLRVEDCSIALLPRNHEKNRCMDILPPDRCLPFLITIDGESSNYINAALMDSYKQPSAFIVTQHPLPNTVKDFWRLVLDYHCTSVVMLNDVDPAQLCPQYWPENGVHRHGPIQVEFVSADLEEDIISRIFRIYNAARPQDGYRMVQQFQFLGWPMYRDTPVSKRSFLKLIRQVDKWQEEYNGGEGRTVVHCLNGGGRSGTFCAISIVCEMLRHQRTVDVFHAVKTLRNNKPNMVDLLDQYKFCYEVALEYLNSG", "UniProt Q63380, 1-617": "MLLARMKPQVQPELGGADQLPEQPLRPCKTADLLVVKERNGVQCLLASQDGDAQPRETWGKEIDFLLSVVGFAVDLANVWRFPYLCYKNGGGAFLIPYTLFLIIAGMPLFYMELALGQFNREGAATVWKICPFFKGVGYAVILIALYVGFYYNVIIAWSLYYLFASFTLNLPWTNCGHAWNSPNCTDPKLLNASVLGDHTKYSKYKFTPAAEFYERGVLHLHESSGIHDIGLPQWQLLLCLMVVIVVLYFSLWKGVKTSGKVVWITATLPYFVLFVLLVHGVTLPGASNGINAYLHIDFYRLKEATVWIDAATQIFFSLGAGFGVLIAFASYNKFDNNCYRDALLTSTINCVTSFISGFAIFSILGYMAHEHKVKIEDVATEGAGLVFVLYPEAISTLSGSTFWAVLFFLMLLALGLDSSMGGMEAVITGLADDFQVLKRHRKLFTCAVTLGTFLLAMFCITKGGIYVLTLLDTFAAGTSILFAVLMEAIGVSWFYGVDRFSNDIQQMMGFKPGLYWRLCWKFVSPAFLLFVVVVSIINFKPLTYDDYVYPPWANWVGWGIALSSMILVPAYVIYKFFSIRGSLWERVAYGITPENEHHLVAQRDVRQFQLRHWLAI", "UniProt P07332, whole entry": "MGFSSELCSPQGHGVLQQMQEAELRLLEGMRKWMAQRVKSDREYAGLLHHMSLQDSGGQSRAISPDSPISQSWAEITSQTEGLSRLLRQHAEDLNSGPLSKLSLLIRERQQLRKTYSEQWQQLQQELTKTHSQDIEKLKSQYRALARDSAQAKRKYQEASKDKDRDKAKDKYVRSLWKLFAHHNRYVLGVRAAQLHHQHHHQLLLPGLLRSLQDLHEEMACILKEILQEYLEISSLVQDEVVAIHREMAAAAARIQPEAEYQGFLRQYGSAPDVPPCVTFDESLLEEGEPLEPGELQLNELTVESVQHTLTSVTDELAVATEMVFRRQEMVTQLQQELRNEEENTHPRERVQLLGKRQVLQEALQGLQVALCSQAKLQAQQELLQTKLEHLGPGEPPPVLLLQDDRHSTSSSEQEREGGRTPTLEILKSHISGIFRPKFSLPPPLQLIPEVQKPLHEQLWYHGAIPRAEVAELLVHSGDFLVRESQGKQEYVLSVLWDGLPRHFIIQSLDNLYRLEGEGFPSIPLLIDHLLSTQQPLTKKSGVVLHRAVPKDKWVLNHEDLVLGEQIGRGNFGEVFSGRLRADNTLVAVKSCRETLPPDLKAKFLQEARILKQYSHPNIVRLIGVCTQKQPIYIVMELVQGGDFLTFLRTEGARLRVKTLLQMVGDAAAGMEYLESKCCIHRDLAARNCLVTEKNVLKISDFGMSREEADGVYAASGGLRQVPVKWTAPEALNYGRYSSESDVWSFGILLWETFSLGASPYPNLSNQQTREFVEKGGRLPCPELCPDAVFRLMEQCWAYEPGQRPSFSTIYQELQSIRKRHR"}, "data": "Measurements from different studies", "KCNH2": "Voltage-gated inwardly rectifying potassium channel KCNH2 (KCNH2, Homo sapiens, UniProt Q12809)", "NR3C1": "Glucocorticoid receptor (NR3C1, Homo sapiens, UniProt P04150)", "note": "Lines come from different studies, so protocols differ. ± gives the spread as reported."}
{"SMILES": "Cc1cc(Cl)c2c(c1N)C(=O)c1ccccc1C2=O", "target or system": "Cytochrome P450 1A1 (CYP1A1, Homo sapiens, UniProt P04798)", "assay": "enzyme activity, inhibitor", "system": "supersomes", "setting": "direct inhibition", "endpoint": "IC50", "value": "400 nM"}
{"SMILES": "COc1cc(CC(=O)NCC(NC(=O)C(CCCNC(=O)c2cccc(I)c2)NC(=O)C(Cc2ccc(C(F)(F)P(=O)(O)O)cc2)NC(=O)c2ccc(C)c(Br)c2)C(N)=O)ccc1O (centres unmarked)", "target or system": "Receptor-type tyrosine-protein phosphatase mu (Homo sapiens, UniProt P28827)", "assay": "enzyme activity", "setting": "10 µM", "endpoint": "inhibition", "value": "no inhibition"}
{"SMILES": "O=C(Nc1cccnn1)N1CC(Oc2ccc(-c3ccccc3F)cn2)C1", "system": "healthy humans", "setting": "oral, single dose", "how to read": "relative to: dose", "endpoint": "urinary excretion", "value": "< 0.3%"}
{"SMILES": "N=C(N)NCCc1ccc(OCCCF)c(Br)c1", "target or system": "Transporter (Slc6a2, Rattus norvegicus, UniProt Q63380)", "system": "healthy Wistar rat, heart", "setting": "iv, 10 min, biodistribution", "endpoint": "heart to blood ratio", "value": "8.7 ± 1.5"}
{"SMILES": "CCOc1ccc2cc(-c3nn(CC4CCN(C)CC4)c4ncnc(N)c34)ccc2n1", "target or system": "KCNH2", "assay": "inhibitor", "endpoint": "IC50", "value": "1510 nM"}
{"SMILES": "CCN1CCN(Cc2ccc(NC(=O)c3ccc(C)c(Oc4ncnc5cc(OC)c(OC)cc45)c3)cc2C(F)(F)F)CC1", "target or system": "Tyrosine-protein kinase Fes/Fps (FES, Homo sapiens, UniProt P07332)", "assay": "KINOMEscan competition binding", "setting": "1.0 µM", "endpoint": "residual probe binding", "value": "0.8%"}
{"SMILES": "CN(C)CCC(=O)[C@@]1(O)CC[C@H]2[C@H]3CC=C4C[C@@H](O)CC[C@]4(C)[C@H]3CC[C@]21C", "target or system": "NR3C1", "assay": "nuclear translocation, agonist, enzyme fragment complementation", "endpoint": "EC50", "value": "> 9000 nM"}
{"SMILES": "NC(=O)c1ccc(-n2cccc2Cc2ccccc2O)cc1N[C@H]1CC[C@H](O)CC1", "target or system": "PC-3 MM-2", "setting": "25 µM, 72 h", "endpoint": "viability", "value": "> 95%"}
{"SMILES": "CC(=O)OCC(=O)[C@]12OC(C)(C)O[C@@H]1C[C@H]1[C@H]3CC=C4C[C@@H](O)CC[C@]4(C)[C@H]3CC[C@]12C", "target or system": "NR3C1", "assay": "nuclear translocation, agonist, enzyme fragment complementation", "endpoint": "EC50", "value": "> 9000 nM"}
{"SMILES": "CCc1c(-c2ccccc2)nn2c(=O)cc(-c3cccc(C(=O)O)c3)[nH]c12", "system": "mouse", "setting": "10 mg/kg, 24 h", "endpoint": "plasma level", "value": "not detected"}
{"SMILES": "CCCN1CCN(c2ccc3c(c2)C2CC3CCN2C(=O)OCc2ccccc2)CC1 (centres unmarked)", "target or system": "KCNH2", "assay": "binding, radioligand binding", "endpoint": "Ki", "value": "695 nM"}
{"SMILES": "c1nn(C2CCOCC2)cc1Nc1ncc2nnn(-c3ccc4cn[nH]c4c3)c2n1", "target or system": "U-251 expressing Fluc", "assay": "luminescence decrease, luciferase reporter", "setting": "concentration not given, 6 h", "how to read": "relative to: untreated", "endpoint": "cytotoxicity", "value": "32 ± 7%"}
{"SMILES": "COc1ccc(N2C(=O)N(c3c(C)cccc3Cl)Cc3cnc(Nc4ccc(N5CCN(C)CC5)cc4OC)nc32)nc1", "system": "bone marrow-derived dendritic cells, mouse", "setting": "with: zymosan A", "endpoint": "CC50", "value": "6000 ± 1000 nM"}
{"SMILES": "C[C@H]1CCCN1Cc1cc2cnc(NC(=O)c3ccc4c(cnn4C)c3)cc2[nH]1", "target or system": "mouse Lin-Sca-1+c-Kit+ cells", "setting": "1 and 10 µM", "endpoint": "colony formation", "value": "no effect"}
{"note": "Repeated from above:"}
{"SMILES": "CCN1CCN(Cc2ccc(NC(=O)c3ccc(C)c(Oc4ncnc5cc(OC)c(OC)cc45)c3)cc2C(F)(F)F)CC1", "target or system": "Tyrosine-protein kinase Fes/Fps (FES, Homo sapiens, UniProt P07332)", "assay": "KINOMEscan competition binding", "setting": "1.0 µM", "endpoint": "residual probe binding", "value": "0.8%"}
